Experimental data gathered from unrelated publications.
Numbered parts are unrelated; each lists some results of a single study. Changes are numbered by the printed parent chain.

Set 1 — method: universal PBM; form: double-stranded DNA, one strand shown; medium: in vitro; concentration: 600 nM; direction: higher = stronger binding; endpoint: E-score
Target: Sal-like protein 4, full length isoform A (SALL4, Homo sapiens, UniProt Q9UJQ4, residues 1-1053)
Chain of UniProt Q9UJQ4 (whole entry, looked up): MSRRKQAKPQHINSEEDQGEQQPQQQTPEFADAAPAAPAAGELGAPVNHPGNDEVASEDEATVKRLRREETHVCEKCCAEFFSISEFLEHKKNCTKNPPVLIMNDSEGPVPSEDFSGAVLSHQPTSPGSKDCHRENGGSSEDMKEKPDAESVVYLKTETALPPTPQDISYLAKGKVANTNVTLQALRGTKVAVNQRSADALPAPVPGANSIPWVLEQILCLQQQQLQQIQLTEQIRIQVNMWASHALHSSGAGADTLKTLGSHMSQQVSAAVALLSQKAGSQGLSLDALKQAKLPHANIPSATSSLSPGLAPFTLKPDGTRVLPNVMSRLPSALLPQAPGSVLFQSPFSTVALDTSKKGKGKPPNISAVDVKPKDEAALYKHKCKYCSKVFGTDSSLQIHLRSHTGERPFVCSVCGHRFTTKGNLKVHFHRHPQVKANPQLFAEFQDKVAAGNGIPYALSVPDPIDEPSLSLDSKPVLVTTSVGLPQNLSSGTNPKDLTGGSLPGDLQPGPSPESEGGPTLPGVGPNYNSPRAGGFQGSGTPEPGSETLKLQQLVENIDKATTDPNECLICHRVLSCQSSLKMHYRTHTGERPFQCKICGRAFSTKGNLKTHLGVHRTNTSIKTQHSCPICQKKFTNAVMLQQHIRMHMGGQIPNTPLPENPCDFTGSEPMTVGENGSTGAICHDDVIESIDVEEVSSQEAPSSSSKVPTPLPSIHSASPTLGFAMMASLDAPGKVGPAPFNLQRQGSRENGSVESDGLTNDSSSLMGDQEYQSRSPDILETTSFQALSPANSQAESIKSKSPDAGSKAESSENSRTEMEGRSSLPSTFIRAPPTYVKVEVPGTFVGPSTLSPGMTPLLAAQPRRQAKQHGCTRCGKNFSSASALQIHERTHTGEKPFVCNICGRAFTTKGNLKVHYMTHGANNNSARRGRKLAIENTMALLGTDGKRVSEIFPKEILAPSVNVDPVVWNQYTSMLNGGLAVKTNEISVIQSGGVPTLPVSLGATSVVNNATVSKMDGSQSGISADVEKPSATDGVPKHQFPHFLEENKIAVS
Setting: 8-mer, flanks averaged, mean of replicates
CCGACCTC: -0.235
CGCCAAAC: -0.164
ACCCAGAA: 0.0218
GCGACAGA: -0.181
CAAGCAAC: 0.0601
ACGGTCGC: -0.247
ACAAATCT: 0.21
ACGTCTCA: -0.0259
CGTAATCA: 0.262

Set 2 — target: CCNE2, cyclin fold, Cln2 fusion (human); method: yeast growth competition, sequencing; medium: yeast; setting: weak parent motif; reference: not given; direction: higher = stronger binding; endpoint: normalised enrichment score
Parent: CDC42EP1 docking peptide (human); SLVVGKLSFDSSP; partner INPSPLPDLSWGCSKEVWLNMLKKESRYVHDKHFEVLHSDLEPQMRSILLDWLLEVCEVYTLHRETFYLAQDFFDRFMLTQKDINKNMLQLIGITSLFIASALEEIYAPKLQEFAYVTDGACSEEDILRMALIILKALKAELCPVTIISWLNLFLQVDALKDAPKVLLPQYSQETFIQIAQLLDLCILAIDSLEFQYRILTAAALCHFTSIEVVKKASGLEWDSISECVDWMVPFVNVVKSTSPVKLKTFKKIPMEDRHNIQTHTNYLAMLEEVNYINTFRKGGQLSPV
SLVVGALSFDSSP [K6A]: -0.0478
SLVVGKASFDSSP [L7A]: -0.258
SAVVGKLSFDSSP [L2A]: 0.142
SLVVGKLSFASSP [D10A]: 0.591
SLVVGKLSFDASP [S11A]: -0.234
SLVVGKLSFDSSA [P13A]: -0.0754

Set 3 — method: RNA Bind-n-Seq; form: RNA; medium: in vitro; concentration: 200 nM; setting: whole 134-nt RNA, ends assumed; added: 150 mM LiCl; reference: input library; direction: higher = stronger binding; endpoint: log2 enrichment; each molecule: 7-deaza-guanosine replaces G
Target: Ras GTPase-activating protein-binding protein 1, full length (G3BP1, Homo sapiens, UniProt Q13283)
Chain of UniProt Q13283 (whole entry, looked up): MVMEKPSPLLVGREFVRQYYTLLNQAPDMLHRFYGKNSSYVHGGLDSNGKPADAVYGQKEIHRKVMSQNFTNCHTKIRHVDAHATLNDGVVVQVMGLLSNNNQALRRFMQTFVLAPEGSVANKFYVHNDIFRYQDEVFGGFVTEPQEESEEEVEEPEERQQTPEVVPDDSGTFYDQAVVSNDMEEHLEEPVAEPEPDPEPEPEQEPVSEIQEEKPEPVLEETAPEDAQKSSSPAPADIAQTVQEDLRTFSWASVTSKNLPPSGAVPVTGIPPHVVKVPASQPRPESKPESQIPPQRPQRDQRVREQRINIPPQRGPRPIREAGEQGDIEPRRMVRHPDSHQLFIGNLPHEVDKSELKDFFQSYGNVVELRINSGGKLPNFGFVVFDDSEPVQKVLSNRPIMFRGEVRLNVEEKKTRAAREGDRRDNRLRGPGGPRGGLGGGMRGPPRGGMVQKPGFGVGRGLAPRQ
Shared flanks, not repeated: GGGAGUUCUACAGUCCGACGAUC … UGGAAUUCUCGGGUGUCAAGG
UCCUGUGCUACACAUCGUAUGUACCGAAUCGGGGUUUGGGGUUUUUGGGGAAAAAGGGGAAAGUAUUAUGUUACGCCGUUCGGAUCUGCA: 0.0674
UCCUGUGCUACACAUCGUAUGUACCGAAUCGGGGAAAAAGGGGAAAAAAAGGGGUGGGGAAAGUAUUAUGUUACGCCGUUCGGAUCUGCA: -0.135
UCCUCAAGUCCUGUGCUACACAUCGUAUGUACCGAAUCGGAGGUGGUUUGGAAAGUAUUAUGUUACGCCGUUCGGAUCUGCACUUCCAGC: -0.875
CAAGUCCUGUGCUACACAUCGUAUGUACCGAAUCGGAAAAGGGAAAAGGAAAAGGAAAGUAUUAUGUUACGCCGUUCGGAUCUGCACUUC: -0.718
UCCUGUGCUACACAUCGUAUGUACCGAAUCGGUUUUUUGGGGUUUUUUGGUUUUUUGGGGAAAGUAUUAUGUUACGCCGUUCGGAUCUGC: -0.0999
CACAGACAACACGCACCCACACAGAUACAGAGGGAAGGGGUUGGGAUGGGGACAGGGUGCACAGCAGGGCGGGGUAGGACCCCAGCCCCU: 0.28
UUCAAAACAGAAUCCUUCCAGUCCUCUUCAGCGUUUAAUUCCAGGCUCAAACUUGGACAGUGAACCCAGAAUUCAAACAGAUAUACUAAA: 1.29
UAACUUUAGAGGAGGAUCUGAUGGAUAUGGCAGUGGACGUGGAUUUGGGGAUGGCUGUAAUGGGUAUGGAGGAGGACCUGGAGGUGGCAA: 0.367

Mixed results
PhoQ, residues 284 288 289 292 302 303 SCCLKL  fold induction (PhoP, residues 12 14 15 18 19 SQCLL (Escherichia coli, UniProt P23836); Sort-seq, refers to: YFP reporter; E. coli; PhoQ-PhoP variant library, added: 10 µM Mg2+; reference: high Mg2+ state, higher = stronger signaling): 7.24

Excerpt of the above (set 1):
CCGACCTC: -0.235
CGCCAAAC: -0.164
ACCCAGAA: 0.0218
